Measured values pooled from the literature.
Protocols differ between the studies behind these lines.

CCn1cc(C(=O)N2CCOCC2)c(=O)c2cc(NC3Cc4ccccc4C3)cnc21  Tmax (human male, fed, plasma; oral, 900 mg twice daily, day 7, tablet, median): 3.5 h
CN[C@H](CC(C)C)C(=O)N[C@H]1C(=O)N[C@@H](CC(N)=O)C(=O)N[C@H]2C(=O)N[C@H]3C(=O)N[C@H](C(=O)N[C@H](C(=O)O)c4cc(O)cc(O)c4-c4cc3ccc4O)[C@H](O)c3ccc(c(Cl)c3)Oc3cc2cc(c3O[C@@H]2O[C@H](CO)[C@@H](O)[C@H](O)[C@H]2O[C@H]2C[C@](C)(N)[C@H](O)[C@H](C)O2)Oc2ccc(cc2Cl)[C@H]1O  Tmax (C57BL/6N mouse H3, faeces; po, 0.5 mL, 20 mg/mL solution): 8 h
O=C(O)CCC(=O)O.[2H]C([2H])([2H])Oc1cc(C)c2[nH]ccc2c1CN1CC[C@@H](C2CC2)C[C@H]1c1ccc(C(=O)O)cc1  Tmax (human, plasma; 200 mg once daily, day 1, multiple ascending dose, median): 3.5 h
CO[C@H]1C[C@@H]2CC[C@@H](C)[C@@](O)(O2)C(=O)C(=O)N2CCCC[C@H]2C(=O)O[C@H]([C@H](C)C[C@@H]2CC[C@@H](OC(=O)NCCOCCOCCOCCOCCOCCOCCOCCOCCC(=O)N3CCc4cc(Cn5nc(-c6ccc7oc(N)nc7c6)c6c(N)ncnc65)ccc4C3)[C@H](OC)C2)C[C@@H](O)[C@H](C)/C=C(\C)[C@@H](O)[C@@H](OC)C(=O)[C@H](C)C[C@H](C)/C=C/C=C/C=C/1C  Tmax (human, plasma; intravenous, 1.6 mg, cycle 1 day 1, arithmetic mean): 0.75 h
CN1C(=O)[C@@H](NC(=O)c2nnc(Cc3ccccc3)[nH]2)COc2cccnc21  Tmax (human, plasma; oral, 200 mg once daily, day 14, median): 3.52 h
C=CCn1c(=O)c2cnc(Nc3ccc(N4CCN(C)CC4)cc3)nc2n1-c1cccc(C(C)(C)O)n1  Tmax (human; oral, 125 mg twice daily, monotherapy lead-in, -5 days; median): 2 h
NC1(C(=O)N[C@@H](CCO)c2ccc(Cl)cc2)CCN(c2nc[nH]c3nccc2-3)CC1  Tmax (LC-MS/MS, non-compartmental; human patients, plasma; 160/320 mg cohort, cycle 2, median, together with: enzalutamide): 2 h
Cl.[2H]C([2H])([2H])CC(=O)c1cnc(NC(=O)C2CC2)cc1Nc1cccc(-c2ncn(C([2H])([2H])[2H])n2)c1OC  Tmax (median; human; oral, 40 mg twice daily, day 7, fed, liquid, multiple dose): 2.12 h
CCCCC1=NC2(CCCC2)C(=O)N1Cc1ccc(-c2ccccc2S(=O)(=O)Nc2noc(C)c2C)c(COCC)c1  Tmax (healthy adult volunteers, plasma; oral, 1600 mg, 14 days repeated dosing, fasted, crushed tablet): 3.5 h
CN1CCC[C@H](CN2c3ccccc3Sc3ccccc32)C1.Cl  Tmax (fasted female ICR mouse, kidney; oral, 16 mg/kg): 1 h
